# Results from different studies.
# Protocols differ between the studies behind these lines.
Structure (SMILES),tested on,test,system,setting,endpoint,result
CN[C@@](C)(C[18F])C(=O)O,A549 tumour model,,"host not given, tumour","1 h, tumour-bearing",tracer uptake,5.1 %ID/g
C1CNCCN1,influenza virus,viral replication,MDCK,72 h,IC50,> 10 µM
O=C(O)c1cnc2ccccc2n1,Mycobacterium tuberculosis variant bovis BCG,microbial growth,ATCC35734 BCG,5 days,IC50,700 µM
CCCCCCCC[n+]1c2c(n(CC(C)C)c1C)C(=O)c1ccccc1C2=O,Mycobacterium tuberculosis variant bovis BCG,microbial growth,BCG,5 days,MIC90,≤ 0.3 µM
Nc1ccn(C[C@@H](CO)OCP(=O)(O)O)c(=O)n1,vesicular stomatitis virus,viral cytopathic effect,HEL,,EC50,> 250 µM
O=C1CCc2c(OC[C@]3(O)CCN(c4c(F)cc(Cl)cc4F)C[C@H]3O)ccc(F)c2N1,Mycobacteroides abscessus,,ATCC 19977,1:1 CAMHB:human serum,IC50,17.5 µM
NC(=O)c1ncn([C@@H]2O[C@H](CO)[C@@H](O)[C@H]2O)n1,vesicular stomatitis virus,viral replication,HeLa,,EC50,10 µM
Cc1cccc(-c2nccnc2C(=O)O)c1,Mycobacterium tuberculosis variant bovis BCG,microbial growth,ATCC35734 BCG,5 days,IC50,800 µM
CCCCCCCCn1cc(CN2CCC3(CC2)OCCCS3)c2ccc(OC)cc21,Mycobacterium tuberculosis variant bovis BCG,microbial growth,BCG,,MIC50,0.26 µM
O=C(O)c1nccnc1Nc1ccccc1,Mycobacterium tuberculosis variant bovis BCG,microbial growth,ATCC35734 BCG,5 days,IC50,400 µM
COC(=O)C(N)CS (stereo not shown),influenza virus,viral replication,MDCK,72 h,IC50,> 10 µM
CC(C)CNc1nccnc1C(=O)O,Mycobacterium tuberculosis variant bovis BCG,microbial growth,ATCC35734 BCG,5 days,IC50,200 µM
CCOC(=O)C1=C(O)C(=O)N(Cc2ccccc2)C1,influenza virus,viral replication,MDCK,72 h,IC50,> 10 µM
CCCCCCCCn1c(C)nc2ccccc21,Mycobacterium tuberculosis variant bovis BCG,microbial growth,BCG,5 days,MIC90,> 50 µM
CCCc1ncc(C[n+]2ccccc2C)c(N)n1,influenza virus,viral replication,MDCK,72 h,IC50,> 10 µM
CC(C)Nc1nccnc1C(=O)O,Mycobacterium tuberculosis variant bovis BCG,microbial growth,ATCC35734 BCG,5 days,IC50,< 100 µM

# Repeated from above:
Structure (SMILES),tested on,test,system,setting,endpoint,result
CCCCCCCC[n+]1c2c(n(CC(C)C)c1C)C(=O)c1ccccc1C2=O,Mycobacterium tuberculosis variant bovis BCG,microbial growth,BCG,5 days,MIC90,≤ 0.3 µM
Nc1ccn(C[C@@H](CO)OCP(=O)(O)O)c(=O)n1,vesicular stomatitis virus,viral cytopathic effect,HEL,,EC50,> 250 µM
